{"data": "Measurements gathered from unrelated publications", "note": "Protocols differ between the studies behind these lines."}
{"SMILES": "COC1CCN(Cc2cc(N(C)C)c3c(c2O)C(=O)C2=C(O)[C@]4(O)C(=O)C(C(N)=O)=C(O)[C@@H](N(C)C)[C@@H]4C[C@@H]2C3)CC1", "organism": "Enterococcus faecalis", "test": "microbial growth, broth dilution", "MIC": "1 mg/L"}
{"SMILES": "CC[C@H](C)[C@@H]1NC(=O)[C@@H]([C@@H](C)O)NC(=O)CNC(=O)[C@H](CC(=O)O)NC(=O)CNC(=O)[C@H](CC(=O)O)NC(=O)CNC(=O)[C@H]2CCCCN2C(=O)[C@@H](NC(=O)[C@H](CC(=O)O)NC(=O)/C=C/CCCCCCCCCC(C)C)CNC(=O)[C@@H]2CCCN2C1=O", "organism": "Staphylococcus aureus", "system": "MRSA USA300", "setting": "together with: Ca2+ 10 mM", "MIC": "2 mg/L"}
{"SMILES": "C[C@@H]1C(=O)O[C@@H](C)/C=C/C=C\\[C@@H](C)[C@@H]2C=C[C@@H]3C[C@@]4(C)O[C@H]4[C@@H](C)[C@H]3[C@@H]2C(=O)C(Cl)(Cl)C1=O", "organism": "Corynebacterium glutamicum", "test": "broth microdilution", "system": "DSM 20300", "MIC": "0.05 mg/L"}
{"SMILES": "C=CCNCc1cc(N(C)C)c2c(c1O)C(=O)C1=C(O)[C@]3(O)C(=O)C(C(N)=O)=C(O)[C@@H](N(C)C)[C@@H]3C[C@@H]1C2", "organism": "Enterococcus faecalis", "test": "microbial growth, broth dilution", "MIC": "2 mg/L"}
{"SMILES": "CCCCCCSCC1OC(OC2C(N)CC(N)C(OC3OC(CN)C(O)CC3N)C2O)C(O)C(N)C1O (centres unmarked)", "organism": "Enterococcus", "system": "vancomycin-resistant", "MIC": "> 150 mg/L"}
{"SMILES": "CC1C=CC=CC(C)C2C=CC3CC(C)(O)C(O)C(C)C3C2C(=O)C(Cl)(Cl)C(=O)C(C)C(=O)O1 (centres unmarked)", "organism": "Corynebacterium glutamicum", "test": "broth microdilution", "system": "DSM 20300", "MIC": "> 6.4 mg/L"}
{"SMILES": "Oc1c(Br)cc(Br)c2nc3cc(I)ccc3nc12", "organism": "Enterococcus", "test": "broth microdilution", "system": "VRE 700221", "MIC": "0.78 µM"}
{"SMILES": "CCCCCCCCCCCCCCCCCCSCC1OC(OC2C(N)CC(N)C(OC3OC(CN)C(O)CC3N)C2O)C(O)C(N)C1O (centres unmarked)", "organism": "Enterococcus", "system": "vancomycin-resistant", "MIC": "> 150 mg/L"}
{"SMILES": "CCOC1C(C)C2C(C=CC3C(C)C=CC=CC(C)OC(=O)C(C)C(=O)C(Cl)(Cl)C(=O)C32)CC1(C)O (centres unmarked)", "organism": "Corynebacterium glutamicum", "test": "broth microdilution", "system": "DSM 20300", "MIC": "> 6.4 mg/L"}
{"SMILES": "Oc1c(Br)cc(Br)c2nc3c(C(F)(F)F)cc(C(F)(F)F)cc3nc12", "organism": "Enterococcus", "test": "broth microdilution", "system": "VRE 700221", "MIC": "0.05 µM"}
{"SMILES": "CCCCCCCCCCCCCCCCCCCCCCCCCCCCCCOC(=O)/C=C/c1ccc(O)cc1", "organism": "Nakaseomyces glabratus", "test": "broth microdilution", "system": "clinical isolate", "setting": "48 h, 37 °C", "MIC": "125 mg/L"}
{"SMILES": "CC1C=CC=CC(C)C2C=CC3CC(C)(O)C(O[N+](=O)[O-])C(C)C3C2C(=O)C(Cl)(Cl)C(=O)C(C)C(=O)O1 (centres unmarked)", "organism": "Corynebacterium glutamicum", "test": "broth microdilution", "system": "DSM 20300", "MIC": "0.1 mg/L"}
{"SMILES": "CN(Cc1cc(N(C)C)c2c(c1O)C(=O)C1=C(O)[C@]3(O)C(=O)C(C(N)=O)=C(O)[C@@H](N(C)C)[C@@H]3C[C@@H]1C2)CC(C)(C)C", "organism": "Enterococcus faecalis", "test": "microbial growth, broth dilution", "MIC": "0.5 mg/L"}
{"SMILES": "CCOC1(C)CC2C=CC3C(C)C=CC=CC(C)OC(=O)C(C)C(=O)C(Cl)(Cl)C(=O)C3C2C(C)C1O (centres unmarked)", "organism": "Corynebacterium glutamicum", "test": "broth microdilution", "system": "DSM 20300", "MIC": "> 3.2 mg/L"}
{"SMILES": "O=C(NN1C(=O)C(Cl)C1c1ccccc1Cl)c1ccc(-n2cccc2)cc1 (centres unmarked)", "organism": "bacteria panel", "setting": "all tested bacteria", "MIC": "1 mg/L"}
{"SMILES": "CN(C)c1cc(CNC(=O)C(C)(C)C)c(O)c2c1C[C@H]1C[C@H]3[C@H](N(C)C)C(O)=C(C(N)=O)C(=O)[C@@]3(O)C(O)=C1C2=O", "organism": "Enterococcus faecalis", "test": "microbial growth, broth dilution", "MIC": "2 mg/L"}
{"SMILES": "Oc1c(Br)cc(Br)c2nc3cc(SC(F)(F)F)ccc3nc12", "organism": "Enterococcus", "test": "broth microdilution", "system": "VRE 700221", "MIC": "0.39 µM"}
{"SMILES": "CC(C=CC(O)=C1C(=O)CNC1=O)=CC(C)C1OC2(C)OC(C1C)C(O)C1OC12C (centres unmarked)", "organism": "Enterococcus", "system": "vancomycin-resistant", "MIC": "> 100 µM"}
{"SMILES": "COC1C=COC2(C)Oc3c(C)c(O)c4c(c3C2=O)C2=NC3(CCN(CC(C)C)CC3)NC2=C(NC(=O)C(C)=CC=CC(C)C(O)C(C)C(O)C(C)C(OC(=O)Nc2cscn2)C1C)C4=O (centres unmarked)", "organism": "Mycobacteroides abscessus", "test": "microbial growth", "system": "ATCC19977", "MIC": "0.026 µM"}
{"SMILES": "CN(C)c1cc(CN2CCCC2)c(O)c2c1C[C@H]1C[C@H]3[C@H](N(C)C)C(O)=C(C(N)=O)C(=O)[C@@]3(O)C(O)=C1C2=O", "organism": "Enterococcus faecalis", "test": "microbial growth, broth dilution", "MIC": "2 mg/L"}
{"SMILES": "CC(/C=C/C(O)=C1/C(=O)CNC1=O)=C\\[C@@H](C)[C@H]1O[C@@]2(C)O[C@H](C[C@@H]3O[C@@]32C)[C@@H]1C", "organism": "Enterococcus", "system": "vancomycin-resistant", "MIC": "> 100 µM"}
{"SMILES": "CN(C)c1cc(CNCc2ccccc2)c(O)c2c1C[C@H]1C[C@H]3[C@H](N(C)C)C(O)=C(C(N)=O)C(=O)[C@@]3(O)C(O)=C1C2=O", "organism": "Enterococcus faecalis", "system": "JH2-2(pMV158), Tet L efflux", "MIC": "0.5 mg/L"}
{"SMILES": "CC1C=CC=CC(C)C2C=CC3CC(C)(O)C(Cl)C(C)C3C2C(=O)C(Cl)(Cl)C(=O)C(C)C(=O)O1 (centres unmarked)", "organism": "Corynebacterium glutamicum", "test": "broth microdilution", "system": "DSM 20300", "MIC": "0.2 to 0.4 mg/L"}
{"SMILES": "CC(C)c1ccc(Cn2ccc([C@H](C)[C@](O)(Cn3cnnn3)c3ccc(F)cc3F)n2)cc1", "organism": "Nakaseomyces glabratus", "test": "CLSI broth microdilution", "system": "537", "MIC": "< 0.008 mg/L"}
{"SMILES": "CC(C)CCOC1C(C)C2C(C=CC3C(C)C=CC=CC(C)OC(=O)C(C)C(=O)C(Cl)(Cl)C(=O)C32)CC1(C)O (centres unmarked)", "organism": "Corynebacterium glutamicum", "test": "broth microdilution", "system": "DSM 20300", "MIC": "3.2 mg/L"}
{"SMILES": "CN(C)c1cc(CNC2CCCC2)c(O)c2c1C[C@H]1C[C@H]3[C@H](N(C)C)C(O)=C(C(N)=O)C(=O)[C@@]3(O)C(O)=C1C2=O", "organism": "Enterococcus faecalis", "test": "microbial growth, broth dilution", "MIC": "1 mg/L"}
{"note": "For quick reference, copied from above:"}
{"SMILES": "CCCCCCSCC1OC(OC2C(N)CC(N)C(OC3OC(CN)C(O)CC3N)C2O)C(O)C(N)C1O (centres unmarked)", "organism": "Enterococcus", "system": "vancomycin-resistant", "MIC": "> 150 mg/L"}
{"SMILES": "Oc1c(Br)cc(Br)c2nc3c(C(F)(F)F)cc(C(F)(F)F)cc3nc12", "organism": "Enterococcus", "test": "broth microdilution", "system": "VRE 700221", "MIC": "0.05 µM"}
{"SMILES": "CC(C)c1ccc(Cn2ccc([C@H](C)[C@](O)(Cn3cnnn3)c3ccc(F)cc3F)n2)cc1", "organism": "Nakaseomyces glabratus", "test": "CLSI broth microdilution", "system": "537", "MIC": "< 0.008 mg/L"}
